Published values collected from several papers.
Each line is one published result; not all experiments were run side by side. “And” joins repeats or separate records; there may be more than shown. ± gives the spread as reported.

O=C(C[Se]C(=O)c1ccc2ccccc2c1)Nc1cccc(C(F)(F)F)c1  mean growth percent (NCI60 colon subpanel; cell growth; 10 µM, 48 h, one-dose): -44.5%
O=C(O)C1OC(Oc2ccc3c(=O)c(O)c(-c4ccc(O)cc4)oc3c2)C(O)C(O)C1O (stereo not shown)  Jmax (MDCKII-UGT1A1/MRP2 cells; glucuronide efflux, substrate): 6.86 ± 2.72 pmol/mg/min
C#CCCCC(O)/C=C/C(=O)NC1(c2ccc(-c3nc4ccn5c(=O)[nH]nc5c4cc3-c3ccccc3)cc2)CCC1 (stereo not shown)  cells in G0/G1 phase (MDA-MB-468; flow cytometry, PI staining; EC60 concentration, 72 h, DMSO 39.2): 43.7%
CO[C@@H]1[C@@H](OC(N)=O)[C@@H](O)[C@H](Oc2ccc3c(O)c(NC(=O)c4ccc(O)c(CC=C(C)C)c4)c(=O)oc3c2C)OC1(C)C  colony count (HCT-116 parental; 50 µM, replicate 2): 19.5
CN1CCCNC(=O)c2cccc(c2)C(=O)NCCCN(C)CCCNc2cccc3c2C(=O)c2cccc(c2C3=O)NCCC1  log2 fold change (SAS; RNA-Seq, measured: FANCL mRNA; 1 µM, 6 h; reference: untreated cells): -0.967
CC(C)(C)n1cc(CN(Cc2cn(CC(=O)O)nn2)Cc2cn(C(C)(C)C)nn2)nn1  amount of CuAAC product (OVCAR-5, HPG-labelled; live-cell CuAAC reaction, LC-ESI-MS/MS; cytosolic proteins; concentration not given, with: BSO 20 µM, 24 h pretreatment): 0.45 pg/µg protein and 0.47 pg/µg protein and 0.55 pg/µg protein
COc1cccc(OC)c1-c1cc(C(=O)NC2(C(=O)O)C3CC4CC(C3)CC2C4)nn1-c1ccc(C(=O)N(C)CCOCCN(C)C(=O)[C@H](CCCCNC(=O)[C@H](CC(C)C)NC(=O)C2OC2C(=O)O)NC(=O)CN2CCN(CC(=O)[O-])CCN(CC(=O)[O-])CCN(CC(=O)[O-])CC2)cc1C(C)C.[177Lu+3] (mixture of isomers)  surface-bound fraction (HT-29; concentration not given, 60 min; reference: added activity): 3.41 ± 0.5%
c1ccc2c(Cc3[nH]c4ccccc4c3Cc3c[nH]c4ccccc34)c[nH]c2c1  IL-1β induction (human monocytes; 5 µM; reference: DMSO): increased
CCN(CC)CC(=O)Nc1cccc(-n2cc(-c3ccc4ccc(-c5cn(-c6cccc(NC(=O)CN(CC)CC)c6)nn5)cc4c3)nn2)c1  fold regulation (RCC4; PCR angiogenesis array, measured: PROK2; 5 x IC50, 4 h, normoxia; reference: untreated): 1.06
Cc1ncsc1-c1ccc(C(C)NC(=O)C2CC(O)CN2C(=O)C(NC(=O)CCCCCCCCCCN2CCCC(Nc3ncc(Cl)c(Nc4ccccc4S(=O)(=O)C(C)C)n3)C2)C(C)(C)C)cc1 (stereo not shown)  log2 fold change (22Rv1; RNA-seq, measured: ZSWIM4 mRNA; concentration not given; reference: DMSO): -2.46
Cn1ncc(-c2ccc3c(=O)[nH]nc(CN)c3c2)c1-c1c(F)c(Cl)cc(OC2CC2)c1C#N  IC50 (UMUC3; cell viability, inhibitor, CellTiter-Glo; 120 h, baseline-subtracted): 0.16 µM
CNC(=O)CCN(Cc1ccc(C(F)F)cc1)C(=O)c1cc2c(OC)ccc(-c3ccc(=O)n(C)c3)c2s1  BRD4 ChIP-seq tag count (murine AML cells; BRD4 chromatin occupancy, ChIP-seq, measured: BRD4 peak; concentration not given, chrX:93416871-93424332; reference: DMSO, higher = more occupancy): 22.4 a.u.
Cn1ncc2cc(-c3cncc(Cl)c3N3CCC4(CCNC4=O)CC3)ccc21  log2 fold change (LS174T; gene expression, microarray, measured: PFKFB4 mRNA; concentration not given, 24 h; reference: untreated cells): 2.26
Cc1cc(Cl)cc(-c2ccnc3cc(CN4C(=O)C5C(C4=O)C5(C)C)sc23)c1C[C@@H]1CNCCO1 (stereo partly shown)  G1 phase cells (CHP-212 parental; PI flow cytometry; 0.1 µM, 24 h): 61.1%
O=C(C[Se]C(=O)c1cccnc1Nc1cccc(C(F)(F)F)c1)Nc1cccc(C(F)(F)F)c1  GI50 (NCI60 colon subpanel; NCI60 five-dose screen): 2.5 µM
CN(C)c1ccc(-n2cc(COC(=O)[C@@]3(C)C=C(C(=O)OC(C)(C)C)C(=O)CC3)nn2)cc1  pERK/ERK ratio (HeLa; quantitative western blot; concentration not given, 10 (unit not given), with: EGF): 0.376
O=C(N1CCCC1)n1cc(-c2ccc(-c3ccccc3)cc2)nn1  SILAC ratio per peptide (mouse T cells; N-terminal labelling proteomics, measured: Paip2b N-terminal peptide; 0.001 µM, 6 h; reference: DMSO): 0.95 and 0.97
C[C@@H]1Cc2c([nH]c3ccccc23)[C@@H](c2c(F)cc(/C=C/C(=O)O)cc2F)N1C12CC(C1)C2  log2 fold change (MCF7; RNA-seq, measured: STON1 mRNA; 1 µM, 24 h, E2-suppressed gene; reference: DMSO vehicle): 1.07
CN1CC[C@@H](COc2cnc(C#N)cc2-c2ccn3nc(NC(=O)C4CC4)cc3c2)C1  EC50 (human monocyte-derived macrophages; cytokine release increase, measured: IL-10; with: LPS): 0.57 µM
CC(C)n1nc(C(F)F)cc1C(=O)Nc1ccc([C@H]2[C@@H](O)CCCc3cncn32)c(-c2ccccc2)c1  EC50 (BRD4-HiBiT cells; BRD4 degradation rescue, inhibitor; 8 h, 50% degradation rescued, with: dBET6 500 nM): 0.0988 µM
CCN(CC)CCNC(=S)Nc1ccc2nc(N3CCN(CC)CC3)cc(C)c2c1  GFP-positive cells (U2OS HDR-GFP reporter; homology-directed repair, flow cytometry; 20 µM): 5.7%
COC(=O)c1cc(NC2=NC(=O)C(=Cc3ccc(N(C)C)cc3)S2)ccc1OC(C)=O  metabolite level (MCF7; GC-MS, measured: Cholesterol; 1 µM; reference: DMSO): 0.67 fold change
Cn1c(-c2ccc(F)cc2)n[nH]c1=S  frequency of myotubes above 10 nuclei (C2C12 CELF1-overexpressing cells; myogenic differentiation, MF20 immunostaining; 10 µM, day 6): increased
CCCCCCCCCCCC(=O)N[C@@H](CO)C[C@@H](O)c1cccc(CCCCCC)c1  ceramide level (HeLa; CERT activity, HPLC-MS/MS lipidomics, measured: ceramide 24:1; 1 µM, 24 h, not cell-number normalised): 22000 pmol/sample and 15400 pmol/sample and 17300 pmol/sample
CC(C)c1ccc(N(C)c2ccc3c(c2)OCC[C@H]3CNc2cnccc2C(=O)O)cc1  IC50 (HCC1143; cell growth or viability, ATP luminescence; 7 days): ≥ 10 µM
COc1ccccc1-c1ccncc1C(=O)Nc1nnc(OCc2ccc(Cl)cc2)s1  colony survival (Brca1 Δ11/Δ11 MEFs with sgGFP; 1.25 µM, 500 cells/well): 105% and 82.5% and 72.1%
CC[C@H](C)C(=O)O[C@H]1C[C@@H](C)C=C2C=C[C@H](C)[C@H](CC[C@@H]3CC=CC(=O)O3)[C@H]21  basal short-circuit current (T84; 0.1 and 5 µM): no effect
CSC(=S)N/N=C(\C)c1ccc(Nc2nnc(-c3ccc(Cl)cc3)c3ccccc23)cc1  cell death (HepG2; cell growth or viability, MTT; 0.156 µM): 48.7%
CCN(C(=O)c1cc(F)ccc1Oc1nncnc1N1CCC2(C1)CN([C@H](CCCN(C)CCOC)C(C)C)C2)C(C)C  GI50 (EFO-21; cell growth or viability; 72 h): > 10 µM
CNS(=O)(=O)Nc1nccc(Cc2c(C)c3ccc(Oc4ncccc4F)cc3oc2=O)c1F  IC50 (Raji; cell viability; 7 days): > 1 µM
CCOc1cncc(-c2ccc(NC(=O)C3(c4ccnc(NS(=O)(=O)C5CC5)n4)CCOCC3)nc2)n1  IC50 (SN12C; cell proliferation, CellTiter-Glo; 72 h, renal cancer): 0.104 µM
O=C(C[Se]C(=O)c1ccccc1Nc1ccccc1)Nc1cccc(C(F)(F)F)c1  mean growth percent (NCI60 colon subpanel; cell growth; 10 µM, 48 h, one-dose): -30.3%
O=C(O)C1OC(Oc2ccc3c(=O)cc(-c4ccccc4)oc3c2)C(O)C(O)C1O (stereo not shown)  Jmax (MDCKII-UGT1A1/MRP2 cells; glucuronide efflux, substrate): 16.5 ± 0.98 pmol/mg/min
CC(C)Cc1ccc(C(C)C(=O)[Se]CC(=O)Nc2cccc(C(F)(F)F)c2)cc1 (stereo not shown)  GI50 (NCI60 colon subpanel; NCI60 five-dose screen): 5.15 µM
NC(Cc1ccccc1)C(=O)N1CC(=Cc2ccc(Cl)c(Cl)c2)C(=O)C(=Cc2ccc(Cl)c(Cl)c2)C1 (stereo not shown)  EC50 (BRD4-HiBiT cells; BRD4 degradation rescue, inhibitor; 8 h, with: dBET6 500 nM): 1.51 µM
C1=[N+]2CCCC[N+]3=Cc4ccc5[n]4[Au-]23[n]2c1ccc2-c1nc2ccccc2nc1-5.F[P-](F)(F)(F)(F)F  TGI (UO-31; NCI60 five-dose screen): 4 -log M
COC1CN([C@H]2CC[C@H]([C@@]3(C)Oc4c(Cl)cc(C(=O)NCc5c(SC)cc(C)[nH]c5=O)c(C)c4O3)CC2)C1  GI50 (T24; cell growth or viability, ATP luminescence; 12 days): > 10 µM

Some of these lines once more:
Cc1ncsc1-c1ccc(C(C)NC(=O)C2CC(O)CN2C(=O)C(NC(=O)CCCCCCCCCCN2CCCC(Nc3ncc(Cl)c(Nc4ccccc4S(=O)(=O)C(C)C)n3)C2)C(C)(C)C)cc1 (stereo not shown)  log2 fold change (22Rv1; RNA-seq, measured: ZSWIM4 mRNA; concentration not given; reference: DMSO): -2.46
Cn1ncc(-c2ccc3c(=O)[nH]nc(CN)c3c2)c1-c1c(F)c(Cl)cc(OC2CC2)c1C#N  IC50 (UMUC3; cell viability, inhibitor, CellTiter-Glo; 120 h, baseline-subtracted): 0.16 µM
CNC(=O)CCN(Cc1ccc(C(F)F)cc1)C(=O)c1cc2c(OC)ccc(-c3ccc(=O)n(C)c3)c2s1  BRD4 ChIP-seq tag count (murine AML cells; BRD4 chromatin occupancy, ChIP-seq, measured: BRD4 peak; concentration not given, chrX:93416871-93424332; reference: DMSO, higher = more occupancy): 22.4 a.u.
Cn1ncc2cc(-c3cncc(Cl)c3N3CCC4(CCNC4=O)CC3)ccc21  log2 fold change (LS174T; gene expression, microarray, measured: PFKFB4 mRNA; concentration not given, 24 h; reference: untreated cells): 2.26
Cc1cc(Cl)cc(-c2ccnc3cc(CN4C(=O)C5C(C4=O)C5(C)C)sc23)c1C[C@@H]1CNCCO1 (stereo partly shown)  G1 phase cells (CHP-212 parental; PI flow cytometry; 0.1 µM, 24 h): 61.1%
